Results of several laboratories.
± marks the error that the study gave.
Cell line: MDCK

| SMILES | test | setting | CC50 |
| --- | --- | --- | --- |
| CCN(CC)CCC(=O)O[C@@H]1C[C@@H]2CC[C@@]1(C)C2(C)C | cell growth or viability, MTT | 48 h | 814 µM |
| COc1cc(-c2oc3cc(O)cc(O)c3c(=O)c2O[C@@H]2O[C@H](CO)[C@@H](O)[C@H](OC(C)=O)[C@H]2O)ccc1O | MTT | 48 h | > 192 µM |
| CCN(CC)CCCC(=O)O[C@@H]1C[C@@H]2CC[C@@]1(C)C2(C)C | cell growth or viability, MTT | 48 h | 34 µM |
| Cc1cc(O)cc2c1C(=O)c1c(O)cccc1C2=O | cell growth or viability, crystal violet | 72 h | > 100 µM |
| CC(C)C1=C[C@@]23CC[C@@H]4[C@](C)(CCC[C@@]4(C)C(=O)NCC#CCN4CCCNCC4)[C@H]2C[C@@H]1C1=C3C(=O)C=CC1=O | cytotoxicity, MTT | 48 h | 18 µM |
| CCC1(O)C([N+](=O)[O-])=NNc2ncnn21 (stereo not drawn) | MTT | 48 h | 742 ± 51 µM |
| c1nc(N2CCCCC2)ncc1CNC12CC3CC(CC(C3)C1)C2 | MTT | – | 33.9 µM |
| CC(C)C1=CC2=C(C=O)C[C@@H]3[C@](C)(CCC[C@@]3(C)C(=O)OCC#CCN3CCOCC3)[C@H]2CC1 | cytotoxicity, MTT | 48 h | 19.8 µM |
| COc1ccc(CNC(C)(C)C23CC4CC(CC(C4)C2)C3)c(O)c1 | – | – | > 100 µM |
| CCOC(=O)c1cnn2c1NN=C([N+](=O)[O-])C2(O)CC (stereo not drawn) | MTT | 48 h | 1060 ± 55 µM |
| COC(=O)[C@]1(C)CCC[C@]2(C)[C@H]3C[C@H]4C(C(C)C)=C[C@]3(CC[C@H]21)[C@H]1[C@@H]4[C@@H](OCC#CCN2CCOCC2)CC[C@@H]1O | cytotoxicity, MTT | 48 h | 26 µM |
| COc1cc(-c2oc3cc(O)cc(O)c3c(=O)c2O[C@@H]2O[C@H](CO)[C@@H](O)[C@H](O)[C@H]2OC(=O)c2cc(O)c(O)c(O)c2)ccc1O | MTT | 48 h | > 159 µM |
| COc1ccc(CNC23CC4CC(CC(C4)C2)C3)c(O)c1 | – | – | 49.9 ± 12.3 µM |
| C=C1C(=O)O[C@H]2C[C@H](C)C(/C=C/C(C)=O)=CC[C@H]12 | MTS | – | 1.6 µM |
| C1C2C1C1C3C4C5C6CC6C4C14CNCC54C23 (stereo not drawn) | – | 3 (unit not given) | 40 µM |
| Cc1nc2n(n1)C(C)(O)C([N+](=O)[O-])=NN2 (stereo not drawn) | MTT | 48 h | > 1420 µM |
| c1nc(N2CCCCCC2)ncc1CNC12CC3CC(CC(C3)C1)C2 | MTT | – | 38.1 µM |
| CCN(CC)CC#CCOC(=O)[C@]1(C)CCC[C@@]2(C)[C@H]1CC(C=O)=C1C=C(C(C)C)CC[C@@H]12 | cytotoxicity, MTT | 48 h | 718 µM |
| COc1cc(-c2oc3cc(O)cc(O)c3c(=O)c2O[C@@H]2O[C@H](CO[C@@H]3O[C@@H](C)[C@H](O)[C@@H](O)[C@H]3O)[C@@H](O)[C@H](OC(C)=O)[C@H]2O)ccc1O | MTT | 48 h | > 150 µM |
| CC(C)C1=CC2=C(C=O)C[C@@H]3[C@](C)(CCC[C@@]3(C)C(=O)OCC#CCN3CCCC3)[C@H]2CC1 | cytotoxicity, MTT | 48 h | 643 µM |
| COc1cc(-c2oc3cc(O[C@@H]4O[C@@H](C)[C@H](O)[C@@H](O)[C@H]4O)cc(O)c3c(=O)c2O[C@@H]2O[C@H](CO[C@@H]3O[C@@H](C)[C@H](O)[C@@H](O)[C@H]3O)[C@@H](O)[C@H](OC(C)=O)[C@H]2O)ccc1O | MTT | 48 h | > 123 µM |
| CCN(CC)CC#CCOC(=O)[C@]1(C)CCC[C@]2(C)[C@H]3C[C@H]4C(C(C)C)=C[C@]3(CC[C@H]21)[C@@H]1C(=O)CCC(=O)[C@@H]14 | cytotoxicity, MTT | 48 h | 57 µM |
| CCC1(O)C([N+](=O)[O-])=NNc2nc(SC)nn21 (stereo not drawn) | MTT | 48 h | 419 ± 36 µM |
| CC(C)C1=C[C@@]23CC[C@@H]4[C@](C)(CCC[C@@]4(C)C(=O)OCC#CCN4CCCC4)[C@H]2C[C@@H]1[C@H]1C(=O)OC(=O)[C@H]13 | cytotoxicity, MTT | 48 h | 36 µM |
| Cc1cc(-c2ccccc2)n2nc(C(=O)Nc3sc4c(c3C(N)=O)CCCCC4)nc2n1 | MTT | 48 h | > 250 µM |
| CN(C)CCC(=O)O[C@@H]1C[C@@H]2CC[C@@]1(C)C2(C)C | cell growth or viability, MTT | 48 h | > 1180 µM |
| CC(C)C1=C[C@@]23CC[C@@H]4[C@](C)(CCC[C@@]4(C)C(=O)OCC#CCN4CCOCC4)[C@H]2C[C@@H]1[C@H]1C(=O)OC(=O)[C@H]13 | cytotoxicity, MTT | 48 h | 20 µM |

Repeated from above:
| SMILES | test | setting | CC50 |
| --- | --- | --- | --- |
| COc1cc(-c2oc3cc(O)cc(O)c3c(=O)c2O[C@@H]2O[C@H](CO[C@@H]3O[C@@H](C)[C@H](O)[C@@H](O)[C@H]3O)[C@@H](O)[C@H](OC(C)=O)[C@H]2O)ccc1O | MTT | 48 h | > 150 µM |
| CC(C)C1=CC2=C(C=O)C[C@@H]3[C@](C)(CCC[C@@]3(C)C(=O)OCC#CCN3CCCC3)[C@H]2CC1 | cytotoxicity, MTT | 48 h | 643 µM |
